Experimental data from different studies.
Each numbered part is a random draw from the data of one study; scales do not carry over between parts. Changes are numbered by the printed parent chain.

Set 1 — method: protein-binding microarray; form: double-stranded DNA, one strand shown; matrix: in vitro; tested at: 940 nM top; notes: 60-bp whole probe; with: salmon DNA 0.4 mg/ml; reference: random background probes; direction: higher = stronger binding; shared flanks, not repeated: GCCTAGCAC … GTCTTGATTCGCTTGACGCTGCTG
Target: Interferon regulatory factor 5, full length, phosphomimetic (IRF5, Homo sapiens, UniProt Q13568-2, residues 1-514, S451D/S453D/S456D/S462D)
| Sequence | fitted relative affinity [z-score] |
| --- | --- |
| TTAGGTCTCCTTTTCCTTTCGTGCTAG | 0.836 |
| TCACTTCTGGGCTGTTTAACTGTGCTA | 0.0283 |
| GACGGTTTCGGTATCCGGACGTGCTAG | 14.9 |
| TTAGCTTTCGGGTTTCGATTAGTGCTA | 6.59 |
| TTAGGTTTCATTTTCCTTTAGTGCTAG | 6.75 |
| GACGGACTGGGACTGTGGACGTGCTAG | -0.592 |
| TCAATTTTAACCCTTATACTGTGCTAG | 0.849 |
| GACGGACTGAGTTTCGGGACGTGCTAG | 3.42 |
| TTAGGTTTCGGGTTTGGGTTAGTGCTA | 9.81 |
| TCAAATGACCTTCTCAGACTGTGCTAG | -0.191 |
| GACGGACTTGACTATCGGGACGTGCTA | -0.454 |
| TTAGGCCTCGGTATCGGTTAGTGCTAG | 4.23 |
| GACGGTTTCGGACTGGGGTCGTGCTAG | 7.54 |
| GACGGTATCTTTATCCTGACGTGCTAG | 0.666 |
| TTAGATCTCAGTATCTATTAGTGCTAG | 1.16 |
| GACGGTTTCGACTTTCGTGACGTGCTA | 6.54 |
| TTATGTATCGACTTTCGGTTAGTGCTA | 4.19 |
| TCACCTTTCTCTTGGAGACTGTGCTAG | 0.79 |
| TCATGTTGCTGTTTGAGACTGTGCTAG | 0.104 |

Set 2 — target: FOS, bZIP domain (human); method: DHFR protein complementation; matrix: yeast; reference: wild-type JUN-FOS pair; direction: higher = stronger binding
Notes: single substitutions, most at no-binding floor
Parent: JUN, bZIP domain (human); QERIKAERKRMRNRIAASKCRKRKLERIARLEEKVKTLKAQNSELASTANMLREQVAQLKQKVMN; partner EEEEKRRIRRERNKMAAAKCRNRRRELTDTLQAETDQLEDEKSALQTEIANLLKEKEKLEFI
| Substitution | binding fitness [natural log] |
| --- | --- |
| T48K | 0.0408 |
| N42E | -1.1 |
| L38D | -1.21 |
| E44C | -0.234 |
| Q58V | -0.0774 |
| S47Q | 0.0533 |
| K39A | -0.649 |
| K36Q | -0.0566 |
| L45G | -1.24 |
| E33S | -0.217 |
| L45F | -0.723 |
| L52N | -1.29 |
| L52I | -0.297 |
| V35Y | -0.347 |
| E32T | -0.0638 |
| L45Q | -1.35 |
| S43M | 0.0134 |
| E54D | -0.223 |

Set 3 — method: RNA Bind-n-Seq; form: RNA; matrix: in vitro; tested at: 200 nM; notes: whole 134-nt RNA, ends assumed; with: 150 mM LiCl; reference: input library; direction: higher = stronger binding; all molecules: 7-deaza-guanosine replaces G
Target: Ras GTPase-activating protein-binding protein 1, full length (G3BP1, Homo sapiens, UniProt Q13283)
Sequence of UniProt Q13283 (whole entry, looked up): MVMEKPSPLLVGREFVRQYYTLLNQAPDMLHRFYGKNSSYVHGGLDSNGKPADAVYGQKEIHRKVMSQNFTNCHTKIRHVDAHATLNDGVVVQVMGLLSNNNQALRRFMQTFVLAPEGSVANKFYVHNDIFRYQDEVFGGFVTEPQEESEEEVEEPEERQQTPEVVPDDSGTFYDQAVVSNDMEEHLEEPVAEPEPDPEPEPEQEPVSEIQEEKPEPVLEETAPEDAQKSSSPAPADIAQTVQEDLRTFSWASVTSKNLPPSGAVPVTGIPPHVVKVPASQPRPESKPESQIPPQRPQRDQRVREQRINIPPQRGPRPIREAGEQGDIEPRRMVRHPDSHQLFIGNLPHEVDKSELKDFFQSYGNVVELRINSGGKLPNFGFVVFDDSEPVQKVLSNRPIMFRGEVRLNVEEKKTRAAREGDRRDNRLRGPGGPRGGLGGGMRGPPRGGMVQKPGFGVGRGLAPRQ
Shared flanks, not repeated: GGGAGUUCUACAGUCCGACGAUC … UGGAAUUCUCGGGUGUCAAGG
| Sequence | log2 enrichment |
| --- | --- |
| UCCUGUGCUACACAUCGUAUGUACCGAAUCGGGGAAAAAGGGGUUUGGGGUUUUUGGGGAAAGUAUUAUGUUACGCCGUUCGGAUCUGCA | -0.764 |
| CAAGUCCUGUGCUACACAUCGUAUGUACCGAAUCGGGUGGGAGGGAAAAAAAGGGAAAGUAUUAUGUUACGCCGUUCGGAUCUGCACUUC | -0.0193 |
| ACCAUGCAGGUGGGCAUCUUUGGGAAGUGGGGCAAGGGGGGGAUAGGGAGGGGGGUAACACUUUGGGAACAUGUGGUCCCAGGUCGUUUC | 0.26 |
| CUGUGCUACACAUCGUAUGUACCGAAUCGGGAAAAAAAGGGAAAAAAAGGAAAAAAAGGGGAAAGUAUUAUGUUACGCCGUUCGGAUCUG | -0.0533 |
| ACCAUGCAGGUGGGCAUCUUUGGGAAGUGGGGCAAGGGGGGGAUAGGGAGGGGGGUAACACUUUGGGAACAGGUGGUCCCAUGUCGUUUC | 0.539 |
| AGUCCUGUGCUACACAUCGUAUGUACCGAAUCGGGGUGGGGUGGGGUUUUUUUGGGGAAAGUAUUAUGUUACGCCGUUCGGAUCUGCACU | 0.431 |
| AGUCCUGUGCUACACAUCGUAUGUACCGAAUCGGAAAAAGGGAAAAAGGGAAAAAGGGAAAGUAUUAUGUUACGCCGUUCGGAUCUGCAC | -0.596 |
| CACAGACAACACGCACCCACUCAGACACAGAGGGAAGGGGUUGGGAUGGGGACAGGGUGCACAGCAGGGCGGGGUAGGACCCCAGCCCCU | -0.183 |

Set 4 — method: RNA Bind-n-Seq; form: RNA; matrix: in vitro; tested at: 365 nM; reference: no-protein control; direction: higher = stronger binding
Target: RNA binding protein fox-1 homolog 2, RRM domain, GST-SBP tag (RBFOX2, Homo sapiens, UniProt O43251-10, residues 100-194)
Notes: natural RNA segment, single round, ends assumed
Shared flanks, not repeated: GGGAGUUCUACAGUCCGACGAUC … UGGAAUUCUCGGGUGCCAA
| Sequence | RBNS enrichment (R) |
| --- | --- |
| GCAGGCACCUCCCAAAUAUCUUGAGGACACUGGCAGCCUUAUGGUGACUAAAUCCACACUUUCUUUAAAGAGAUGCAGAUGAAUUACUUUUCUGUUAAUAUAUAGAAAAA | 0.485 |
| AGCUUAACUUCAGAAAUAAGAACUAGCACACUUAGACAAACAGGAGAGCAGGGGUUUGAAGCCAGCUGUCGAAGAGCAUCCCUGCUGUCUUAAGAAGCUUUUUCCCCAUA | 0.425 |
| UUCCACUGCAAAUGCCCAGCAGUGAAGAUGGCCUCAAAUUGGGUUCUUGCCUGCAGUGUGUGUGGCAGCAGCCCAUGUGCCUUUACCUGUUGUCAAACUUGCAAGCAUUU | 0.704 |
| GGCUCACCUGCGCGGGCUGGGGGGCCUGGCCUCCUGACCUUCGCCGCCCUGCCCUCCGCCGCUCCGCCUGAGCUCCCCGGUUUGCAGAAUGGAGGAGGGAAGUUGAAGGA | 0.739 |
| CCCCUUCCUGACAACUUGAGCCAGUAAGCCAUGCAGGGUGUGGUGCCUCCUAGAGAAAACACUGCCUGGACUGUUCUGUGCAUCCCUCCAAACAGCAUCAUCCAAAUCCA | 1.21 |
| UCUAACCUACAGGAUGGAGUAAAACAACUGCUACAGUUCAGCACCUGUUUUAUGUGCCGAAUCACUGUGGGGAAAGGUCAGGAAGGUAUAGUCCUUCAAUAGGAAAUUGU | 0.393 |
| CCAGCUCAAGUGCCGCCCCCUCACCGCCAAUUCUCAACUGGUUGCCGUGUACACUGAUUACAUUUCAGGAGGACGUGUUCUAUUUAUGUUGUGCCUCUGCAGGCAAAGCC | 0.562 |
| AGGAAAGAAUUACAGUUGGACUGAUUGUGACAGUGCCUUGUCGUCCUCUUUGAAACACCCCGUGUUGUCCAGUAUACCUUAUAACACUGAGCCACUUCUCCCCACCCUCC | 0.933 |

Excerpt of the above (set 4):
| Sequence | RBNS enrichment (R) |
| --- | --- |
| CCCCUUCCUGACAACUUGAGCCAGUAAGCCAUGCAGGGUGUGGUGCCUCCUAGAGAAAACACUGCCUGGACUGUUCUGUGCAUCCCUCCAAACAGCAUCAUCCAAAUCCA | 1.21 |
| UCUAACCUACAGGAUGGAGUAAAACAACUGCUACAGUUCAGCACCUGUUUUAUGUGCCGAAUCACUGUGGGGAAAGGUCAGGAAGGUAUAGUCCUUCAAUAGGAAAUUGU | 0.393 |
| CCAGCUCAAGUGCCGCCCCCUCACCGCCAAUUCUCAACUGGUUGCCGUGUACACUGAUUACAUUUCAGGAGGACGUGUUCUAUUUAUGUUGUGCCUCUGCAGGCAAAGCC | 0.562 |
| AGGAAAGAAUUACAGUUGGACUGAUUGUGACAGUGCCUUGUCGUCCUCUUUGAAACACCCCGUGUUGUCCAGUAUACCUUAUAACACUGAGCCACUUCUCCCCACCCUCC | 0.933 |
